Results from different studies.
± marks the error that the study gave.
Mycosin-1: Mycosin-1 (Mycolicibacterium thermoresistibile, UniProt G7CDQ2)
PTGS2: Prostaglandin G/H synthase 2 (PTGS2, Homo sapiens, UniProt P35354)
FGFR1: Fibroblast growth factor receptor 1 (FGFR1, Homo sapiens, UniProt P11362)
RPA1: Replication protein A 70 kDa DNA-binding subunit (RPA1, Homo sapiens, UniProt P27694)
TMPRSS11D: Transmembrane protease serine 11D (TMPRSS11D, Homo sapiens, UniProt O60235)
AGTR1: Type-1 angiotensin II receptor (AGTR1, Homo sapiens, UniProt P30556)
TMPRSS2: Transmembrane protease serine 2 (TMPRSS2, Homo sapiens, UniProt O15393)
Trpv1: Transient receptor potential cation channel subfamily V member 1 (Trpv1, Rattus norvegicus, UniProt O35433)
Kallikrein-6: Kallikrein-6 (Homo sapiens, UniProt Q92876)

CCCC(/C=N/NC(=N)N)=N\NC(=N)N  inhibition (Mycosin-1; protease activity, inhibitor, quenched fluorescent peptide; 150 µM, together with: 20 µM fluorogenic peptide substrate; relative to: DMSO control): 54.3%
Cc1noc(NS(=O)(=O)c2ccc(NC(=O)c3cc(-c4cccc(Cl)c4)nc4ccccc34)cc2)c1C  inhibition (PPIA (Homo sapiens, UniProt P62937); enzyme activity, inhibitor; 10 µM): > 50%
COc1cc(C(=O)NC2CCC(N3CCN(CC4CCC5(CCCC5)C4)CC3)CC2)c(F)cc1Nc1ncc2c(n1)N(C1CCCC1(F)F)CC(F)(F)C(=O)N2C (stereo not drawn)  inhibition (DDR1 (Homo sapiens, UniProt Q08345); cell-free assay, TR-FRET; 10 µM): 0.19%
CC(=O)Oc1ccccc1C(=O)[O][Pt]([NH2])([NH2])([Cl])([Cl])[O]C(=O)CCCc1ccccc1  inhibition (PTGS2; enzyme activity, COX activity kit; PSN1; 1 µM, 24 h): 6.1%
Cc1nc2ccc(Cc3c[nH]c4ncc(C(F)(F)F)cc34)cc2o1  inhibition (FGFR1; enzyme activity, inhibitor; 1 µM): 76%
CC(C)C1C=C2CCC3C(C)(C(=O)O)CCCC3(C)C2CC1 (stereo not drawn)  inhibition (RPA1; ssDNA binding, EMSA; 200 µM): no effect
CCc1cccc(Nc2c(C(N)=O)cnc3c(C)cc(-c4ccc5cnn(C)c5c4)cc23)c1  inhibition (PDEB1 (Trypanosoma brucei, UniProt Q8WQX9); enzyme activity, inhibitor; 10 µM): 67%
OC(c1cccc(Cl)c1)c1c[nH]c2ncc(C(F)(F)F)cc12 (stereo not drawn)  inhibition (FGFR1; enzyme activity, inhibitor; 1 µM): 25%
O=C(O[C@H](CO)C(F)(F)F)N1C[C@@H]2[C@H](C1)[C@H]2c1ccn(-c2ccc(F)nc2)n1  inhibition (Neutral cholesterol ester hydrolase 1 (Mus musculus, UniProt Q8BLF1); ABPP; mouse brain lysate; 0.2 µmol/L): no inhibition
OC(c1ccc(OCc2ccccc2)cc1)c1c[nH]c2ncc(C(F)(F)F)cc12 (stereo not drawn)  inhibition (FGFR1; enzyme activity, inhibitor; 1 µM): 25%
NCc1ccc(NC(=O)c2c[nH]c3ccccc3c2=O)cc1  inhibition (TMPRSS11D; enzyme activity, fluorogenic substrate; 10 µM, together with: Boc-VPR-AMC): < 20%
NC(=O)c1ccc(C(=O)NOCc2ccc(Sc3cccc(Cl)c3)c(C(F)(F)F)c2)cc1  inhibition (HDAC3 (Homo sapiens, UniProt O15379); cell-free assay, inhibitor; 100 µM): 13.6%
COc1cccc(C(O)c2c[nH]c3ncc(C(F)(F)F)cc23)c1 (stereo not drawn)  inhibition (FGFR1; enzyme activity, inhibitor; 1 µM): 78%
CCc1nc2ccc(Cl)cn2c1C(=O)NCc1ccc2oc(-c3ccc(OC(F)(F)F)cc3)nc2c1  inhibition (MT-CYB (Bos taurus, UniProt P00157); oxygen consumption; bovine heart submitochondrial particles; 1 µM): no inhibition
COc1ccc2c(O)c(C(=O)Nc3ccc(CN)cc3)ccc2c1  inhibition (TMPRSS11D; enzyme activity, fluorogenic substrate; 10 µM, together with: Boc-VPR-AMC): < 20%
O=C(NCCCn1ccnc1)OC(Cn1ccnc1)c1ccc(F)cc1 (stereo not drawn)  inhibition (CYP51 (Trypanosoma cruzi, UniProt Q7Z1V1); enzyme activity; concentration not given, together with: eburicol): no inhibition
C/C(=N/NC(=N)N)c1ccc(/C(C)=N/NC(=N)N)cc1  inhibition (Mycosin-1; protease activity, inhibitor, quenched fluorescent peptide; 150 µM, together with: 20 µM fluorogenic peptide substrate; relative to: DMSO control): 63.8%
COc1cc2ncc3c(c2cc1-c1cnn(C)c1)n(-c1ccc(C#N)cc1F)c(=O)n3C  inhibition (FMS kinase (CSF1R); enzyme activity, inhibitor; 1 µM): > 50%
CCn1c2ccccc2c2cc(CN[C@H]3CC[C@H](NC(=O)c4cc5ccccc5[nH]4)CC3)ccc21  inhibition (DRD2 (Homo sapiens, UniProt P14416); cell-free assay, inhibitor; 10 µM): 15.6%
CCCCCCNc1ccc([N+](=O)[O-])cc1S(=O)(=O)NC  inhibition (SLC12A2 (Homo sapiens, UniProt P55011); chloride influx; HEK293 transfected with SLC12A2; 100 µM; relative to: DMSO): 29.4 ± 2.8%
CCCCOC(=O)NS(=O)(=O)c1sc(CC(C)C)cc1-c1ccc(F)c(Cn2ccnc2)c1  inhibition (AGTR1; ligand displacement, radioligand; 10 µM, cell membranes): 8%
CC(C)c1ccc(C(=O)Nc2ccc(CN)cc2)c(O)c1  inhibition (TMPRSS2; enzyme activity, inhibitor, fluorescence; 10 µM): 92.9%
O=C(c1ccncc1)N1N=C2/C(=C/c3ccc4ccccc4c3)CCCC2C1c1ccc2ccccc2c1 (stereo not drawn)  inhibition (PTGS2; enzyme activity; concentration not given): 90.1%
NCc1ccc(NC(=O)c2ccc3ccccc3c2)cc1  inhibition (TMPRSS11D; enzyme activity, fluorogenic substrate; 10 µM, together with: Boc-VPR-AMC): < 20%
CCc1c(-c2c3c(N)n[nH]c(=O)c3nn2-c2ccccc2)oc2ccccc12  inhibition (FGFR1; enzyme activity, inhibitor, ELISA; 0.1 µM): 0%
FC(F)(F)c1cnc2[nH]cc(Cc3cccc(Cl)c3)c2c1  inhibition (FGFR1; enzyme activity, inhibitor; 0.1 µM): 2%
CC(C)C1=CCC2C(=C1)CCC1C(C)(C(=O)O)CCCC21C (stereo not drawn)  inhibition (RPA1; ssDNA binding, EMSA; 200 µM): no effect
O=C(Nc1ccccc1O)c1ccc(-c2ccc(Cl)cc2Cl)o1  inhibition (Heat shock protein HSP 90-beta, N-terminal domain (HSP90AB1, Homo sapiens, UniProt P08238); binding, fluorescence polarization; 10 µM, together with: FITC-geldanamycin): no inhibition
OC(c1ccc2c(c1)OC(F)(F)O2)c1c[nH]c2ncc(C(F)(F)F)cc12 (stereo not drawn)  inhibition (FGFR1; enzyme activity, inhibitor; 0.1 µM): 3%
CCCCOC(=O)NS(=O)(=O)c1sc(CC(C)C)cc1-c1ccc(OC)c(Cn2ccnc2)c1  inhibition (AGTR1; ligand displacement, radioligand; 10 µM, cell membranes): 23%
O=[N+]([O-])c1ccc(/N=N/c2ccc(O)c(O)c2)cc1  inhibition (Semaphorin-3C, with neuropilin-1 (SEMA3C, Homo sapiens, UniProt Q99985); SEMA3C binding, inhibitor; 25 µM, together with: SEMA3C; relative to: DMSO): > 50%
CCC1(CC)C[C@@H](NC(=O)Nc2cccc3c(C)nccc23)c2cc(F)ccc2O1  inhibition (Trpv1; proton-induced activation, inhibitor, FLIPR calcium; HEK293 expressing rat TRPV1; up to 11.25 µmol/L, pH 5.0; partial inhibition): 17.7 ± 3.7%
COc1cc(Cc2c[nH]c3ncc(C(F)(F)F)cc23)cc(OC)c1  inhibition (FGFR1; enzyme activity, inhibitor; 1 µM): 91%
CC(=O)c1cnc(N)nc1N1CC[C@H]1c1nn2ccc(Cl)c2c(=O)n1-c1ccccc1  inhibition (HCN4 (Homo sapiens, UniProt Q9Y3Q4); ion current, inhibitor; 3 µM): < 10%
NCc1ccc(NC(=O)c2cc3ccccc3cc2O)cc1  inhibition (TMPRSS11D; enzyme activity, fluorogenic substrate; 10 µM, together with: Boc-VPR-AMC): < 20%
C[C@@H](N)C1CCN(S(=O)(=O)c2cccc3cnccc23)CC1  inhibition (RIOK3 (Homo sapiens, UniProt O14730); cell-free assay, competition with immobilised ligand; 10 µM): > 95%
Oc1c(C(Nc2nccs2)c2ccccc2OCc2ccccc2)ccc2cccnc12 (stereo not drawn)  inhibition (Genome polyprotein, NS2B-NS3 protease (GP1, West Nile virus, UniProt Q9Q6P4); enzyme activity, inhibitor; 25 µM, 0.1% CHAPS, together with: tetrapeptide substrate): 83.1 ± 1.08%
CCCCOC(=O)NS(=O)(=O)c1sc(CC(C)C)cc1-c1cc(Cn2ccnc2)ccc1F  inhibition (AGTR1; ligand displacement, radioligand; 10 µM, cell membranes): 16%
Cc1c(-c2c(C#N)c(C(=O)NN)nn2-c2ccccc2)oc2ccccc12  inhibition (FGFR1; enzyme activity, inhibitor, ELISA; 1 µM): 12.4%
FC(F)(F)Oc1cccc(Cc2c[nH]c3ncc(C(F)(F)F)cc23)c1  inhibition (FGFR1; enzyme activity, inhibitor; 1 µM): 21%
CCCCOC(=O)NS(=O)(=O)c1sc(CC(C)C)cc1-c1ccnc(Cn2ccnc2)c1  inhibition (AGTR1; ligand displacement, radioligand; 10 µM, cell membranes): 19%
O=C1NCCC(O)c2ccccc21 (stereo not drawn)  inhibition (PARP16 (Homo sapiens, UniProt Q8N5Y8); enzyme activity, inhibitor; 10 µM): 92%
NCc1ccc(NC(=O)c2ccc3ccccc3c2O)cc1  inhibition (Kallikrein-6; enzyme activity, inhibitor; 10 µM): 80%
Cc1cc(O)c(C=O)c2c1C(=O)Oc1c(CO)c(O)c3c(c1O2)C(O)OC3=O (stereo not drawn)  inhibition (PDE5A (Homo sapiens, UniProt O76074); enzyme activity, inhibitor; 10 µg/mL): 85.3%
Cc1ccc(C(=O)Nc2ccc(CN)cc2)c(O)c1  inhibition (TMPRSS2; enzyme activity, inhibitor, fluorescence; 10 µM): 79.7%
O=C(CSc1ccc(Cl)cc1)Nc1ccc2scnc2c1  inhibition (Trpv1; capsaicin-activated current, inhibitor, two-electrode voltage clamp; Xenopus oocytes; 100 µM, together with: capsaicin 1 µM): inhibited
Cc1ccc(O)c(C(=O)Nc2ccc(CN)cc2)c1  inhibition (Kallikrein-6; enzyme activity, inhibitor; 10 µM): 25%
CCOC(=O)c1c(NC(=O)CN2CCN(c3ccccn3)CC2)sc2c1CCC(c1ccccc1)C2 (stereo not drawn)  inhibition (LDHA (Homo sapiens, UniProt P00338); enzyme activity, inhibitor, fluorescence; 100 µg/mL): 34.7%

Repeated from above:
COc1cccc(C(O)c2c[nH]c3ncc(C(F)(F)F)cc23)c1 (stereo not drawn)  inhibition (FGFR1; enzyme activity, inhibitor; 1 µM): 78%
O=C(O[C@H](CO)C(F)(F)F)N1C[C@@H]2[C@H](C1)[C@H]2c1ccn(-c2ccc(F)nc2)n1  inhibition (Neutral cholesterol ester hydrolase 1 (Mus musculus, UniProt Q8BLF1); ABPP; mouse brain lysate; 0.2 µmol/L): no inhibition
O=C1NCCC(O)c2ccccc21 (stereo not drawn)  inhibition (PARP16 (Homo sapiens, UniProt Q8N5Y8); enzyme activity, inhibitor; 10 µM): 92%
NCc1ccc(NC(=O)c2ccc3ccccc3c2)cc1  inhibition (TMPRSS11D; enzyme activity, fluorogenic substrate; 10 µM, together with: Boc-VPR-AMC): < 20%
NCc1ccc(NC(=O)c2cc3ccccc3cc2O)cc1  inhibition (TMPRSS11D; enzyme activity, fluorogenic substrate; 10 µM, together with: Boc-VPR-AMC): < 20%
